Results of several laboratories.
Each line is one published result; not all experiments were run side by side. Several values in a cell are separate wells, animals, samples, runs or records. ± marks the error that the study gave.
UniProt Q99895, sequence (whole entry, looked up): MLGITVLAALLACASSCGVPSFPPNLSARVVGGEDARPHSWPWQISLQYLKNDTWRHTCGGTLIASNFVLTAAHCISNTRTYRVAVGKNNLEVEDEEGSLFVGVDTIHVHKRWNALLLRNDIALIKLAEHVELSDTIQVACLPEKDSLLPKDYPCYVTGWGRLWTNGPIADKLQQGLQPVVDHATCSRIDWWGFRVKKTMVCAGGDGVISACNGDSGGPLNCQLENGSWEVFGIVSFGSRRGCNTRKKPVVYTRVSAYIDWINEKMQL

CC[C@H](C)[C@H](NC(=O)[C@H](CO)NC(=O)[C@H](Cc1ccc(O)cc1)NC(=O)[C@H](Cc1ccc(O)cc1)NC(=O)[C@H](CC(N)=O)NC(=O)CNC(=O)[C@H](CO)NC(=O)[C@H](Cc1ccc(O)cc1)NC(=O)[C@H](CO)NC(=O)[C@H](CO)NC(=O)[C@H](CC(N)=O)NC(=O)COCCOCCNC(=O)CN1CCN(CC(=O)O)CCN(CC(=O)O)CCN(CC(=O)O)CC1)C(=O)N[C@@H](CC(C)C)C(N)=O [copper-64 labelled]  tissue uptake (dynamic PET; KPC mouse Ptf1a-CreER tdTomato, pancreas; intravenous, 4.6 MBq/mouse, 5.5 min, 84 d after tamoxifen): 13 %ID/mL
O=C1NC2(CC2)COc2ncc(F)cc2[C@H]2COCCN2c2ccn3ncc1c3n2  monocyte percentage (Sprague-Dawley rat, male, blood; oral, 20 mg/kg/day, 4 weeks, end of recovery, subacute toxicity): 1.7 ± 0.5%
CC(=O)N[C@@H](CC(C)C)C(=O)N[C@H](C(=O)N[C@@H](Cc1ccccc1)C(=O)N[C@]1(C)CCCCCC/C=C/CCC[C@@](C)(C(=O)N[C@@H](C)C(=O)N[C@@H](C)C(=O)N[C@@H](C)C(=O)N[C@@H](C)C(=O)N[C@@H](C)C(=O)N[C@H](C)C(N)=O)NC(=O)[C@H](CC(C)C)NC(=O)[C@H](CCCCNC(=O)CCNC(=O)C[C@@H]2N=C(c3ccc(Cl)cc3)c3c(sc(C)c3C)-n3c(C)nnc32)NC(=O)[C@H](C)NC(=O)[C@H](Cc2c[nH]c3ccccc23)NC(=O)[C@H](Cc2ccc(O)cc2)NC(=O)[C@H](C)NC1=O)[C@@H](C)O  unbound fraction (equilibrium dialysis; mouse plasma; 2 µM, 6 h, 37 °C): 2.71% and 2.7%
CSCC[C@@H]1NC(=O)[C@@H]2CCCN2C(=O)[C@H](C(C)C)NC(=O)[C@@H](NC(=S)Nc2ccc(CC3CN(CC(=O)O)CCN(CC(=O)O)CCN3CC(=O)O)cc2)CSSC[C@@H](C(=O)O)NC(=O)[C@H](C)NC(=O)[C@H](CCCNC(=N)N)NC(=O)[C@H](Cc2ccc(O)cc2)NC(=O)[C@H]([C@@H](C)O)NC1=O (stereo partly drawn) [gallium-68 labelled]  tumour to blood ratio (PET imaging; mouse bearing B16-F10 tumour; intravenous, 1 h): 1.54 ± 0.31
CSCC[C@@H]1NC(=O)[C@H](Cc2ccccc2)NC(=O)[C@H]([C@@H](C)O)NC(=O)[C@@H]2CSSC[C@@H]3NC(=O)[C@H]([C@@H](C)O)NC(=O)[C@H](CC(N)=O)NC(=O)[C@H](CSSC[C@@H](C(=O)N[C@@H](CC(=O)O)C(=O)N[C@@H](CCC(N)=O)C(=O)O)NC(=O)[C@H](CC(C)C)NC1=O)NC(=O)[C@H](CCCCN)NC(=O)[C@H](CC(=O)O)NC(=O)[C@H](CCCCN)NC(=O)[C@H](Cc1ccccc1)NC(=O)[C@H]([C@@H](C)O)NC(=O)[C@H]([C@@H](C)O)NC(=O)CNC(=O)[C@@H]1CCCN1C(=O)[C@H](CCC(=O)O)NC(=O)[C@@H](NC(=O)[C@@H](NC(=O)[C@@H](NC(=O)[C@H](CCC(=O)O)NC(=O)[C@H](CO)NC(=O)CN)C(C)C)[C@@H](C)O)CSSC[C@H](NC(=O)[C@H](CCCNC(=N)N)NC3=O)C(=O)NCC(=O)N[C@@H](CO)C(=O)N[C@@H](CC(=O)O)C(=O)NCC(=O)N[C@@H](CCCCN)C(=O)N[C@@H](CO)C(=O)N[C@@H](C)C(=O)N[C@@H](Cc1ccc(O)cc1)C(=O)N2  cleaved form (Chymotrypsin-C (Homo sapiens, UniProt Q99895); substrate, LC-MS; 15 µM, pH 8.0, 25 °C, with: Chymotrypsin-C 150 nM): 3%
N=C(N)NCCC[C@@H]1NC(=O)[C@H](CCCCNC(=O)CCC(NC(=S)Nc2ccc(CC3CN(CC(=O)O)CCN(CC(=O)O)CCN(CC(=O)O)CCN3CC(=O)O)cc2)C(=O)NCCCC[C@@H]2NC(=O)[C@@H](Cc3ccc(O)cc3)NC(=O)[C@H](CC(=O)O)NC(=O)CNC(=O)[C@H](CCCNC(=N)N)NC2=O)NC(=O)[C@@H](Cc2ccc(O)cc2)NC(=O)[C@H](CC(=O)O)NC(=O)CNC1=O (stereo partly drawn) [scandium-44 labelled]  tissue uptake (PET imaging ROI; female athymic nude mice, U-87 MG xenograft, liver; intravenous, 4 h): 1.46 ± 0.57 %ID/g
CC[C@H](C)[C@@H]([C@@H](CC(=O)N1CCC[C@H]1[C@H](OC)[C@@H](C)C(=O)N[C@H](C)[C@@H](O)c1ccccc1)OC)N(C)C(=O)[C@@H](NC(=O)[C@H](C(C)C)N(C)C(=O)OCc1ccc(NC(=O)[C@H](CCCNC(N)=O)NC(=O)[C@@H](NC(=O)CCCCCN2C(=O)CC(SC[C@H](NC(=O)[C@H](CC(=O)O)NC(=O)[C@H](Cc3ccc(O)cc3)NC(=O)[C@H](Cc3c[nH]c4ccccc34)NC(=O)[C@@H](N)CCCNC(=N)N)C(=O)O)C2=O)C(C)C)cc1)C(C)C (stereo partly drawn)  concentration (C57BL/6 mouse, healthy, liver; intraperitoneal, 2.5 mg/kg, 6 h): not detected
CCCC[C@H](NC(=O)CN1CCC(NC(=S)Nc2ccc(C[C@H]3CN(CC(N)=O)CCN(CC(N)=O)CCN(CC(N)=O)CCN3CC(N)=O)cc2)CC1)C(=O)N[C@H]1CC(=O)NCCCC[C@@H](C(N)=O)NC(=O)[C@H](Cc2c[nH]c3ccccc23)NC(=O)[C@H](CCCNC(=N)N)NC(=O)[C@@H](Cc2ccccc2)NC(=O)[C@H](Cc2c[nH]cn2)NC1=O [lead-203 labelled]  SUVmean (SPECT/CT; male C57BL/6J mice, B16-F10 tumour, liver; intravenous, 20 pmol, 2 h, 203Pb-labelled): 7.51 SUV
CN[C@H](CC(C)C)C(=O)N[C@H]1C(=O)N[C@@H](CC(N)=O)C(=O)N[C@H]2C(=O)N[C@H]3C(=O)N[C@H](C(=O)N[C@H](C(=O)NCC(N)=O)c4cc(O)cc(O)c4-c4cc3ccc4O)[C@H](O)c3ccc(c(Cl)c3)Oc3cc2cc(c3O[C@@H]2O[C@H](CO)[C@@H](O)[C@H](O)[C@H]2O[C@H]2C[C@](C)(NCc3ccc(OCc4cn(CC(=O)N[C@H](C(=O)N[C@@H](CCN)C(=O)N[C@H]5CCNC(=O)[C@H]([C@@H](C)O)NC(=O)[C@H](CCN)NC(=O)[C@H](CCN)NC(=O)[C@H](CC(C)C)NC(=O)[C@@H](CC(C)C)NC(=O)[C@H](CCN)NC5=O)[C@@H](C)O)nn4)c(OC)c3)[C@H](O)[C@H](C)O2)Oc2ccc(cc2Cl)[C@H]1O  TC50 (ciPTEC overexpressing OAT-1; 24 h, 37 °C, serum-free medium): 180 µM
